Assay results gathered from unrelated publications.
A part holds a random share of what one study measured. Changes are numbered by the printed parent chain.

Sample 1
Target: ABI1, truncated, D143A, DHFR fusion (Arabidopsis thaliana)
Method: DHFR PCA, deep sequencing
Sample: yeast
Setting: methotrexate growth selection, single substitutions
Together with: (+)-ABA 0.11 µM
Reference: wild-type fitted maximum
Direction: higher = stronger binding
Parent: PYL1, truncated, DHFR fusion (Arabidopsis thaliana); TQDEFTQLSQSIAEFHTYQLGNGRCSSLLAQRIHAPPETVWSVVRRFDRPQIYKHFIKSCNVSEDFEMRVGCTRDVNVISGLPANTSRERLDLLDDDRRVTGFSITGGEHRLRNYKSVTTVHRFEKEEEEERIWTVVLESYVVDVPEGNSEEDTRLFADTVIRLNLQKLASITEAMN; partner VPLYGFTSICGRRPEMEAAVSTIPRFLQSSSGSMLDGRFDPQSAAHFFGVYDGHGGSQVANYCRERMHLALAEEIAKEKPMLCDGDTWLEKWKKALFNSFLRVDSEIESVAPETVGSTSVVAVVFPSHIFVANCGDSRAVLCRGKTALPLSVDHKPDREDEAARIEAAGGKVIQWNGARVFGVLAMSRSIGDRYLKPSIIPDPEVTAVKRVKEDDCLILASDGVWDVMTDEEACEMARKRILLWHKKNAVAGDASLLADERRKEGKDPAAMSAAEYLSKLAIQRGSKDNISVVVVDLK
Change | relative binding score [%]
I162T | 5.14
H16V | -3
E139K | 8.43
L82R | 4.99
T160A | 7.02
G21D | 32.6
T154W | 5.36
S11W | 20.5
F103D | -9.98
V62G | 1.73
N85E | 47.5
L156Q | 4.88
R123A | 54.3
Y141T | -2.37

Sample 2
Target: RNA binding protein fox-1 homolog 2, RRM domain, GST-SBP tag (RBFOX2, Homo sapiens, UniProt O43251-10, residues 100-194)
Method: RNA Bind-n-Seq
Form: RNA
Sample: in vitro
Concentration: 365 nM
Setting: natural RNA segment, single round, ends assumed
Reference: no-protein control
Direction: higher = stronger binding
All sequences stand within: GGGAGUUCUACAGUCCGACGAUC … UGGAAUUCUCGGGUGCCAA
Construct (chain): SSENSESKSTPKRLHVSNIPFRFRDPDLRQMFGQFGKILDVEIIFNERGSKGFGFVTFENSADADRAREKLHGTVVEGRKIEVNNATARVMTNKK
Strand | RBNS enrichment (R)
AAUGAAGAAAUGAAUUGCCAAAACCACUGAGGCCUCCUCUCAAAACAAAACAUAUAAAAGUAACAGAAUCUAGCUGGGCUAUGGUGGGACACAGCUUUAAUCUCAGGAAC | 0.704
CUGGUUUCAACUCUACUGCGAAACAAAAAUAGCUCCUUAAAAGUACUGUUCUCCUUCAGUGGCAUGUAGUUAUCUAAUCAAGACACCUCAUUCAAACAAAACCUGCCUUA | 0.465
ACUAAAAGGACAUUUGAAAUCUUUACAUUUUAGAUGUUUUUGUGAAUUAUAAAUAUCUCCUUUUUCCUCGCUUCAUGCUAACUUGUCUCUAGAUAAAAUCUUAUUUCUUC | 0.74
CUUAUGUUUGCUUAAAUAGCAAAAAUCAACACUAAAUGUCUAAAGGAAUUUGUAAUUUGAGACCUAGUAUUUUUACACAAUAAACCUGCUAAAACAGGCUUUAAAAGACA | 0.59
ACCUCAUAAUUCUCACACAUGGCAUUUCUAAUGACAGGCAGGCCCUCUUCCAUGGUGCCGGCCAGAUUUGGGGACGGAGCACCAUUGUCCCUGUGGGGCUCAAUGUGGUG | 0.221
GGCAUGGUGGCUGGAAGUAAAACUGCCAACUCUGGCCCUCAGAACUCUCAGGUAUAGAAGCCCAGGAUGUCUAAUACCCUGUCCCAGUGCCCGAGAGCUGCCUGGUGUCA | 1.16
AGCUCACCUGGGGCCUCCCUGCUCACACCAAUGCAGGUUUCAAUAAAGACUCAGCCAUGCUUCCGUGACUACUGUGUUGAAUUUUAGCCGCCUGCUCCUAAAGGGAGUGG | 0.281
AGAAUGAUGGAUGUAAAUUGGAUGUAAAUAUUCAGUUUAUAUAAUUAUAUCUAAUUUGUACCCUUGUUGAAAUUGUCAUUUAUACAAUAAAGCGAAUUCUUUAUCUCUAA | 0.335
UUUUAAAAGAUGCAUAAUAGCUGAAUGUAUGCAUGACUUUGAAAGAAGUUAAAAUGGUGAUUUUUUUUCACCUCUUGUACAUUUUAAAACCAGGCCAAAUCUAUUUGCCA | 0.543
CAGGUGGCUGGGGACACUGCAUAUUCCCUGCUGGUGGCUCGGCUCACCUGUUCUGCCUCCCUUGGCCACUUUGCUUCAGCUCAAAGGCACAGCUCAGUUUAAAAGCCAAA | 0.537
AAAAUAUAUGUACUUUAAAAAGUUCUGAUUUCCAAAUAUAAUAAAGUUAAAAUUAAGUAUAUACUUUAGGAAGUUACCAAUAACUUCCAUCAAAGCAGAGUAGGAUAUAU | 0.535
UCCUGCAAGAGCAGGUAUUCCAAUGACACUGGCCUGUGCUUAGCUGAGGAACUUCCAGCUUCAGAUUCUGUUACAAGUGUCACUUGCCAAAGGACCUUACUGUUCCUUCU | 0.244

Sample 3
Target: UBE2E2 UBC core domain (UniProt Q96LR5)
UniProt Q96LR5, sequence (whole entry, looked up): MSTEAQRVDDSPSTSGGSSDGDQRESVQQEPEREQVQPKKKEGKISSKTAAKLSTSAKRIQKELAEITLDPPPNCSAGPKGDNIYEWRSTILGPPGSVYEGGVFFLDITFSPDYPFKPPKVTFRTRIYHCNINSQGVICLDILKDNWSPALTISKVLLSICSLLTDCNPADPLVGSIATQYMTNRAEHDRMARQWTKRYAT
Method: yeast two-hybrid
Sample: yeast
Setting: mostly zero background
Reference: not given
Direction: higher = stronger interaction
B1: MYCBP2 RING domain (UniProt O75592); chain TSLKQDADDMCMICFTEALSAAPAIQLDCSHIFHLQCCRRVLENRWLGPRITFGFISCPICKNKINHIVLKD
B2: TRIM54 RING domain (UniProt Q9BYV2); chain SMDNLEKQLICPICLEMFSKPVVILPCQHNLCRKCANDVFQASNPLWQSRGSTTVSSGGRFRCPSCRHEVVLDRHGV
B3: RNF152 RING domain (UniProt Q8N8N0); chain ETLSQDSLLECQICFNYYSPRRRPKLLDCKHTCCSVCLQQMRTSQKDVRCPWCRGVTKLPPGFS
B4: TRIM31 RING domain (UniProt Q9BZY9); chain FVNKLQEEVICPICLDILQKPVTIDCGHNFCLKCITQIGETSCGFFKCPLCKTSVRKNAIRF
B5: RNF31 RING domain (UniProt Q96EP0); chain AFLRRLLAQECAVCGWALPHNRMQALTSCECTICPDCFRQHFTIALKEKHITDMVCPACGRPDLTDDTQLL
B6: RNF166 RING domain (UniProt Q96A37); chain GDSGLEAQYTCPICLEVYHRPVAIGSCGHTFCGECLQPCLQVPSPLCPLCRLPFDPKKVDK
B7: ANAPC11 RING domain (UniProt Q9NYG5); chain GICRMAFNGCCPDCKVPGDDCPLVWGQCSHCFHMHCILKWLHAQQVQQHCPMCRQEWKFKE
B8: MEX3B RING domain (UniProt Q6ZN04); chain SGLRRKGSRDCSVCFESEVIAALVPCGHNLFCMECANRICEKSEPECPVCHTAVTQAIRIF
B9: TRIM26 RING domain (UniProt Q12899); chain PLRSLEEEVTCSICLDYLRDPVTIDCGHVFCRSCTTDVRPISGSRPVCPLCKKPFKKENIRP
B10: RNF183 RING domain (UniProt Q96D59); chain EQQGRELEAECPVCWNPFNNTFHTPKMLDCCHSFCVECLAHLSLVTPARRRLLCPLCRQPTVLASGQP
Sequence | lacZ reporter activity
B1 (MYCBP2 RING domain) | 0
PEELAVNNDDCAICWDSMQAARKLPCGHLFHNSCLRSWLEQDTSCPTCRMSLNIADNNR (AMFR RING domain (UniProt Q9UKV5)) | 0
LDAASGHPLVCPLCHGQYERPCLLDCFHDFCTGCLRGRATDGRLSCPLCQHQTLVKGPSG (Rnf207 RING domain (UniProt Q3V3A7)) | 0
MNDVLENELQCIICSEYFIEAVTLNCAHSFCSYCINEWMKRKIECPICRKDIKSKTYSL (RNF8 RING domain (UniProt O76064)) | 0
B2 (TRIM54 RING domain) | 0
QVQSRTKIEECVVCSDKKAAVLFQPCGHMCACENCANLMKKCVQCRAVVERRVPFI (MIB1 RING domain (UniProt Q86YT6)) | 0
B3 (RNF152 RING domain) | 0
B4 (TRIM31 RING domain) | 0
B5 (RNF31 RING domain) | 0
LGTKLEAKYLCSACRNVLRRPFQAQCGHRYCSFCLASILSSGPQNCAACVHEGIYEEGIS (TRAF2 RING domain (UniProt Q12933)) | 0
B6 (RNF166 RING domain) | 0
B7 (ANAPC11 RING domain) | 0
B8 (MEX3B RING domain) | 0
B9 (TRIM26 RING domain) | 0
B10 (RNF183 RING domain) | 0
YPEEVDDDLICHICLQALLDPLDTPCGHTYCTLCLTNFLVEKDFCPMDRKPLVLQHCKK (LNX1 RING domain (UniProt Q8TBB1)) | 0
KPDKMEETLTCIICQDLLHDCVSLQPCMHTFCAACYSGWMERSSLCPTCRCPVERICKNH (CHFR RING domain (UniProt Q96EP1)) | 0

Sample 4
Target: CCND3, cyclin fold, Cln2 fusion (human)
Method: yeast growth competition, sequencing
Sample: yeast
Setting: weak parent motif
Reference: not given
Direction: higher = stronger binding
Parent: WEE1 docking peptide (human); HKTFRKLRLFDTP
Change | normalised enrichment score
HKTFRSLRLFDTP [K6S] | 0.137
HKTRRKLRLFDTP [F4R] | 0.125
HKTFRKLRLFDTK [P13K] | 0.143
HKTFRKLRLKDTP [F10K] | 0.0729
HKTFRKLRLFDTA [P13A] | 0.113
HKTFRKLRLTDTP [F10T] | 0.126
LKTFRKLRLFDTP [H1L] | -0.0049
HKTFRKLRPFDTP [L9P] | 0.0818
HKTFRKGRLFDTP [L7G] | 0.208
HKTFRKLRLFDHP [T12H] | 0.194
HKDFRKLRLFDTP [T3D] | 0.155
HKTFRKLRLFETP [D11E] | 0.0887
MKTFRKLRLFDTP [H1M] | 0.173
HKTFRKLRNFDTP [L9N] | 0.163
HKTFRKLRLWDTP [F10W] | 0.112
HKTFRKPRLFDTP [L7P] | 0.143
HMTFRKLRLFDTP [K2M] | 0.00559
HKTWRKLRLFDTP [F4W] | 0.221
EKTFRKLRLFDTP [H1E] | 0.0869
HKTFRKLRLFDPP [T12P] | 0.0507
HSTFRKLRLFDTP [K2S] | 0.0343
HKTFRKVRLFDTP [L7V] | 0.0666
HKTFGKLRLFDTP [R5G] | 0.00634
HKTFRWLRLFDTP [K6W] | 0.141
HTTFRKLRLFDTP [K2T] | 0.119

For quick reference, copied from above (sample 2):
Strand | RBNS enrichment (R)
CUGGUUUCAACUCUACUGCGAAACAAAAAUAGCUCCUUAAAAGUACUGUUCUCCUUCAGUGGCAUGUAGUUAUCUAAUCAAGACACCUCAUUCAAACAAAACCUGCCUUA | 0.465
GGCAUGGUGGCUGGAAGUAAAACUGCCAACUCUGGCCCUCAGAACUCUCAGGUAUAGAAGCCCAGGAUGUCUAAUACCCUGUCCCAGUGCCCGAGAGCUGCCUGGUGUCA | 1.16
UCCUGCAAGAGCAGGUAUUCCAAUGACACUGGCCUGUGCUUAGCUGAGGAACUUCCAGCUUCAGAUUCUGUUACAAGUGUCACUUGCCAAAGGACCUUACUGUUCCUUCU | 0.244
ACCUCAUAAUUCUCACACAUGGCAUUUCUAAUGACAGGCAGGCCCUCUUCCAUGGUGCCGGCCAGAUUUGGGGACGGAGCACCAUUGUCCCUGUGGGGCUCAAUGUGGUG | 0.221
AAAAUAUAUGUACUUUAAAAAGUUCUGAUUUCCAAAUAUAAUAAAGUUAAAAUUAAGUAUAUACUUUAGGAAGUUACCAAUAACUUCCAUCAAAGCAGAGUAGGAUAUAU | 0.535
AAUGAAGAAAUGAAUUGCCAAAACCACUGAGGCCUCCUCUCAAAACAAAACAUAUAAAAGUAACAGAAUCUAGCUGGGCUAUGGUGGGACACAGCUUUAAUCUCAGGAAC | 0.704
AGAAUGAUGGAUGUAAAUUGGAUGUAAAUAUUCAGUUUAUAUAAUUAUAUCUAAUUUGUACCCUUGUUGAAAUUGUCAUUUAUACAAUAAAGCGAAUUCUUUAUCUCUAA | 0.335
CUUAUGUUUGCUUAAAUAGCAAAAAUCAACACUAAAUGUCUAAAGGAAUUUGUAAUUUGAGACCUAGUAUUUUUACACAAUAAACCUGCUAAAACAGGCUUUAAAAGACA | 0.59
UUUUAAAAGAUGCAUAAUAGCUGAAUGUAUGCAUGACUUUGAAAGAAGUUAAAAUGGUGAUUUUUUUUCACCUCUUGUACAUUUUAAAACCAGGCCAAAUCUAUUUGCCA | 0.543
AGCUCACCUGGGGCCUCCCUGCUCACACCAAUGCAGGUUUCAAUAAAGACUCAGCCAUGCUUCCGUGACUACUGUGUUGAAUUUUAGCCGCCUGCUCCUAAAGGGAGUGG | 0.281
CAGGUGGCUGGGGACACUGCAUAUUCCCUGCUGGUGGCUCGGCUCACCUGUUCUGCCUCCCUUGGCCACUUUGCUUCAGCUCAAAGGCACAGCUCAGUUUAAAAGCCAAA | 0.537
